Measured values pooled from the literature.
Protocols differ between the studies behind these lines. Several values in a cell are separate wells, animals, samples, runs or records. ± gives the spread as reported.
UGT1A9: UDP-glucuronosyltransferase 1A9 (UGT1A9, Homo sapiens, UniProt O60656)
Sequence of UniProt O60656 (whole entry, looked up): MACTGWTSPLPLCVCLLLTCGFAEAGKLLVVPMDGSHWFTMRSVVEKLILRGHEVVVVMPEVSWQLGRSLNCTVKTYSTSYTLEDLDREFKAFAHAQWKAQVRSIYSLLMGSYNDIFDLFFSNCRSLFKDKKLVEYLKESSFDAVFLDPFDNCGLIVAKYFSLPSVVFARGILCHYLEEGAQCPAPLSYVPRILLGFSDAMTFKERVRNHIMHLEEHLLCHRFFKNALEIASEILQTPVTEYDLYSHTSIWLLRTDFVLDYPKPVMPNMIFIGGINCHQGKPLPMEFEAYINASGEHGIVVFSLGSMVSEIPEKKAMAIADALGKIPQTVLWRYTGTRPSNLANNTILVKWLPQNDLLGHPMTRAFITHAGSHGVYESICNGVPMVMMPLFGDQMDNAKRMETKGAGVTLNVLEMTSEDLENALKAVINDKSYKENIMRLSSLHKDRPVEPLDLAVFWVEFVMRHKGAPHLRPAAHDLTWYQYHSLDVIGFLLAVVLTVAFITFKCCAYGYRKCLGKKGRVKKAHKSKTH
SULT1A1: Sulfotransferase 1A1 (SULT1A1, Homo sapiens, UniProt P50225)
Sequence of UniProt P50225 (whole entry, looked up): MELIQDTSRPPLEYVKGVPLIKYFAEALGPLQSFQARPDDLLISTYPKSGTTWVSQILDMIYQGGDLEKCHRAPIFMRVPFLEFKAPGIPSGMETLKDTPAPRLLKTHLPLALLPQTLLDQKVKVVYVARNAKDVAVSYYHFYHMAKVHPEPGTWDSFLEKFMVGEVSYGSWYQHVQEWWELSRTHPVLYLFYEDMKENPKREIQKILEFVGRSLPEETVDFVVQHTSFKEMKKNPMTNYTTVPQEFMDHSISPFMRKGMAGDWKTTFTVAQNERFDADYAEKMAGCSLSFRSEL
ESR2: Estrogen receptor beta (ESR2, Homo sapiens, UniProt Q92731)
Sequence of UniProt Q92731 (whole entry, looked up): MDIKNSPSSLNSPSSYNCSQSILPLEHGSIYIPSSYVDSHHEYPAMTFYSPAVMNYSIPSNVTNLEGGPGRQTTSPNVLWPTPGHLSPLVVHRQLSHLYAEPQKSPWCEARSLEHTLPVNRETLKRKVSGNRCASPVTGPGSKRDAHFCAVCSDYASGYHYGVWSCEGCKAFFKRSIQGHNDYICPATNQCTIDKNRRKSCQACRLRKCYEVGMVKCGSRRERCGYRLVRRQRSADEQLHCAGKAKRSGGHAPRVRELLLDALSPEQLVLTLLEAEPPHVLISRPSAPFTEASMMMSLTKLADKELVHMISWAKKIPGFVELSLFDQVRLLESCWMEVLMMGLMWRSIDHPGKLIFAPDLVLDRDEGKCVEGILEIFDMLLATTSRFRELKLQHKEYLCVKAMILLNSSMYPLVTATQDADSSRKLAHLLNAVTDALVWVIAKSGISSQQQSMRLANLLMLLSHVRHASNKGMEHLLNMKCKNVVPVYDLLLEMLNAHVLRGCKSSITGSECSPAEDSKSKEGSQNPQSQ
CYP3A4: Cytochrome P450 3A4 (CYP3A4, Homo sapiens, UniProt P08684)
Sequence of UniProt P08684 (whole entry, looked up): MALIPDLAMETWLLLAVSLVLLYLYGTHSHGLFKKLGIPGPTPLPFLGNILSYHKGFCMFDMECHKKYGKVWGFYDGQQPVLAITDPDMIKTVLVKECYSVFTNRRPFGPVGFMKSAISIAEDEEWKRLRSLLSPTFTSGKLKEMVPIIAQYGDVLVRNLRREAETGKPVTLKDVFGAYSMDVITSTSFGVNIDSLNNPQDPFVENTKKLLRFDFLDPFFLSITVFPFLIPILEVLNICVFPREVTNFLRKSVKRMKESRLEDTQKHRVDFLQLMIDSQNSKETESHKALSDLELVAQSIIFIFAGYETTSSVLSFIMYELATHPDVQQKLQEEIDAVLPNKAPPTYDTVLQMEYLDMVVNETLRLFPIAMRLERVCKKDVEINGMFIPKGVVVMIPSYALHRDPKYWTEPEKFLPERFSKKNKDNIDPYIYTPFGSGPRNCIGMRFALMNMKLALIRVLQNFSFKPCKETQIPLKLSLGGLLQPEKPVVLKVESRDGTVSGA
Sortilin: Sortilin (Homo sapiens, UniProt Q99523)
Sequence of UniProt Q99523 (whole entry, looked up): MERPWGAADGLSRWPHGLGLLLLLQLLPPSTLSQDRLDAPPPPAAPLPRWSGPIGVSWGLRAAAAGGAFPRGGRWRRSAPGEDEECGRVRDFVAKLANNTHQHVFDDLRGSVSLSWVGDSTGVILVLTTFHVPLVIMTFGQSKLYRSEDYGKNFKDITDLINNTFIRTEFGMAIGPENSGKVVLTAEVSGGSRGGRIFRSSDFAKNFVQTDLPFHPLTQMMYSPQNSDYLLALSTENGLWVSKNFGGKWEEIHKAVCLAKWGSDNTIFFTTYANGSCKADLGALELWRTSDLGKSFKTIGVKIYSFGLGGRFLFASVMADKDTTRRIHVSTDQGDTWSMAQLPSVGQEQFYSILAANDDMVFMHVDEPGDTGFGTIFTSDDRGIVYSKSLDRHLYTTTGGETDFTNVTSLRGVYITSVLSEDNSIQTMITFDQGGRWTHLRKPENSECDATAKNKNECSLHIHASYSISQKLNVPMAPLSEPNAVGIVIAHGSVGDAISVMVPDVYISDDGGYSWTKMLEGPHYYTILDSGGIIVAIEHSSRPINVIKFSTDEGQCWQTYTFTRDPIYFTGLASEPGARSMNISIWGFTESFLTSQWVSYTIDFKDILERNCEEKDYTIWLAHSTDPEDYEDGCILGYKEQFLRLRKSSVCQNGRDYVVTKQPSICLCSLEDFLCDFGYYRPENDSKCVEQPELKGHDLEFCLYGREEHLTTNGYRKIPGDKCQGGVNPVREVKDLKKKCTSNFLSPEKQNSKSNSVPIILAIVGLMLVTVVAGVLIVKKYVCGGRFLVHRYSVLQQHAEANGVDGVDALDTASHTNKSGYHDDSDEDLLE
Sequence of UniProt P51575 (whole entry, unmodified, looked up): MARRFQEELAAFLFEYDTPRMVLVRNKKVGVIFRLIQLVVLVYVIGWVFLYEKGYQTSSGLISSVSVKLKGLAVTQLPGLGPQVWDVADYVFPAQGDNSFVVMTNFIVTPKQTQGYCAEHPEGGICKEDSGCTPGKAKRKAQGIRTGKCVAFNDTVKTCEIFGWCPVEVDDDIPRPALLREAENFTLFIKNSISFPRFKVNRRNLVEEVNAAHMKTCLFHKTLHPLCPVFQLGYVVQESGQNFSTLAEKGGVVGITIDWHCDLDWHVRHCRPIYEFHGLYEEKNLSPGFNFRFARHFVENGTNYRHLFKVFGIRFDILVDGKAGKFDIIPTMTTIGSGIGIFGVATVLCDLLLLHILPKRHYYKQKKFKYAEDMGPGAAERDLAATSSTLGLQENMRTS
Sequence of UniProt P05177 (whole entry, looked up): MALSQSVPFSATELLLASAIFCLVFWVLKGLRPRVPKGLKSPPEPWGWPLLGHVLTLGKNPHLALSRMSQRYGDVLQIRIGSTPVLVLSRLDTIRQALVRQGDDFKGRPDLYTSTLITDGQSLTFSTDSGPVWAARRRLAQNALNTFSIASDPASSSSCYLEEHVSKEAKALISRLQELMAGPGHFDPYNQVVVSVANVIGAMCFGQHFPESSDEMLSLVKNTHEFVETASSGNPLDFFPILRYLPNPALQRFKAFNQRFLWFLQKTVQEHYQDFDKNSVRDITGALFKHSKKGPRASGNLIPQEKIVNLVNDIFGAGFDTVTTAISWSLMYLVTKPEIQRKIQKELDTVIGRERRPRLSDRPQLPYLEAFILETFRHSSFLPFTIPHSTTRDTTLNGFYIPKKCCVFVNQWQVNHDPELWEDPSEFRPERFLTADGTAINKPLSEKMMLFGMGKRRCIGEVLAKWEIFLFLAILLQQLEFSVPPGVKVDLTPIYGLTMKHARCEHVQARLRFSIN
Sequence of UniProt O75897 (whole entry, looked up): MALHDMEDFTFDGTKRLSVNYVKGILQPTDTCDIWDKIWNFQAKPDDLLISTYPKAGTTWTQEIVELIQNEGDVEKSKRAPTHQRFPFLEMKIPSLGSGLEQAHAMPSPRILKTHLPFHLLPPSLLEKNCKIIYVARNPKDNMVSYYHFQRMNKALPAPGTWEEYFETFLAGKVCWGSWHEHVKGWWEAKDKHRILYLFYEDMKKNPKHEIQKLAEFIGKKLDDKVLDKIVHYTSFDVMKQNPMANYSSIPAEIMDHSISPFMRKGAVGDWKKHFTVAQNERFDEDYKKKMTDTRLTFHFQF
Sequence of UniProt P19099 (whole entry, unmodified, looked up): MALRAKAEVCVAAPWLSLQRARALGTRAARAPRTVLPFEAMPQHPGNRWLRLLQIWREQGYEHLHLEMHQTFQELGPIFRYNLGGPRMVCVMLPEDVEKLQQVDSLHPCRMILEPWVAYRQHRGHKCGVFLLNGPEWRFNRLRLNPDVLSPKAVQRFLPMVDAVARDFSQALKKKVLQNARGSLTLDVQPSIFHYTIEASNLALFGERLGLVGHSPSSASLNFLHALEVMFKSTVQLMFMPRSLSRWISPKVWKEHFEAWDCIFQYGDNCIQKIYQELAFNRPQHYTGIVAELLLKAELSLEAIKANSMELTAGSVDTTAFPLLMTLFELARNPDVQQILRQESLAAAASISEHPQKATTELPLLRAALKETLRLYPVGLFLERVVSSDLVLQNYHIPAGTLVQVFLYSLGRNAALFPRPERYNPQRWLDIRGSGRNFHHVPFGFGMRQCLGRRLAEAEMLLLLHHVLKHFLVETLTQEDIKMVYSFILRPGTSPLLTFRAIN

SMILES	tested on	assay	system	conditions	how to read	measurement	value
CC(C)=CCc1cc2c(cc1O)O[C@H](c1ccc(O)cc1)CC2=O	UGT1A9	glucuronidation, substrate	recombinant enzyme	pH 7.4	–	CLint	784 µL/min/mg
CC(=O)NCCc1c[nH]c2ccc(O)cc12	SULT1A1	substrate, sulfation, purified enzyme	–	10 µM, 10 min, pH 7.0, 37 °C	–	specific activity	2.86 ± 0.01 nmol/min/mg
Cn1c(=O)c2c(ncn2C)n(C)c1=O	Cytochrome P450 1A2 (CYP1A2, Homo sapiens, UniProt P05177)	–	human, plasma	oral, 200 mg, day 1, alone, geometric mean	–	Vd/F	42.5 L
O=C(Nc1nc2cccc(-c3ccc(CN4CCS(=O)(=O)CC4)cc3)n2n1)C1CC1	–	–	rheumatoid arthritis patients	oral, 30 mg once daily, 4 weeks, TEAE regardless of relatedness	–	incidence of gastritis	5.9%
CC1CC(OC(=O)C(O)c2ccccc2)CC(C)(C)C1 (stereo not shown)	Nedd8-cullin1 interaction	neddylation, AlphaScreen	–	100 µM	–	inhibition	-6.3%
O=c1cc(-c2ccc(O)c(-c3c(O)cc(O)c4c(=O)cc(-c5ccc(O)cc5)oc34)c2)oc2cc(O)cc(O)c12	ESR2	array formation, agonist	GFP-ERβ PRL-HeLa	1 h	–	EC50	3.51 µM
Cc1cc(Nc2ncnc3ccc(NC4=NC(C)(CO)CO4)cc23)ccc1Oc1ccn2ncnc2c1 (stereo not shown)	CYP3A4	–	human, plasma	oral, 300 mg tucatinib single dose, day 1, tucatinib alone	–	AUC(0-inf) (arithmetic mean)	535 ng·h/mL
COc1cc2c(CCNC(C)=O)c[nH]c2cc1O	SULT1A1	substrate, sulfation, purified enzyme	–	10 µM, 10 min, pH 7.0, 37 °C	–	specific activity	25.1 ± 0.53 nmol/min/mg
O=C(O)COc1cccc(-c2nc(Nc3ccc4[nH]ncc4c3)c3ccccc3n2)c1	UGT1A9	enzyme activity, inhibitor	–	with: niflumic acid	–	IC50	11.2 µM
C[C@]12C[C@H](O)[C@H]3[C@@H](CCC4=CC(=O)CC[C@@]43C)[C@@H]1CC[C@@H]2C(=O)CO	Cytochrome P450 11B2, mitochondrial (CYP11B2, Homo sapiens, UniProt P19099, A320V)	substrate	–	100 µM, phospholipid vesicles	–	18-hydroxylation coupling efficiency	42.9 ± 4.5%
CC(C)(C)N1Cc2cccc(n2)CN(C(C)(C)C)Cc2cccc(n2)C1	Zn(II) complex	UV-vis titration	–	bound water deprotonation	–	pKa	9.1
O=c1c(O)c(-c2ccc(O)c(O)c2)oc2cc(O)cc(O)c12	ESR2	array formation, agonist	GFP-ERβ PRL-HeLa	1 h	–	EC50	0.314 µM
O=C(O)CC[C@H](NC(=O)N[C@@H](CCCCNC(=O)[C@H](Cc1ccc2ccccc2c1)NC(=O)CCCCCNC(=O)CN1CCN(CC(=O)O)CCN(CC(=O)O)CCN(CC(=O)O)CC1)C(=O)O)C(=O)O [gallium-68 labelled]	–	PET/CT	mouse, 22Rv1 xenograft, muscle	intravenous, 3.7 MBq, 1 h	–	SUVmean	0.25 ± 0.005 SUV
COc1ccc(F)cc1C(=O)NCc1ccc(-c2nn([C@@H](C)C(F)(F)F)c(N)c2C(N)=O)cc1	CYP3A4	–	human liver microsomes, 0.5 mg/mL	TDI incubation	–	fu,inc	0.777
C=C1CN(S(=O)(=O)c2ccc(N(C)C)cc2)CCCN(CC2CCCCC2)CCCN(S(=O)(=O)c2cccc3ccccc23)C1.Cl	Sortilin	–	HEK-293T	–	baseline: CC50 over IC50	selectivity index	≥ 26
CCC(=O)NCC[C@@H]1CCc2cc(O)c3c(c21)CCO3	Sulfotransferase 1C4 (SULT1C4, Homo sapiens, UniProt O75897)	substrate, sulfation, purified enzyme	–	10 µM, 10 min, pH 7.0, 37 °C	–	specific activity	0.27 ± 0.01 nmol/min/mg
C=CC(=O)N1C[C@H](Nc2ncnc3[nH]ccc23)CC[C@@H]1C	CYP3A	substrate	human, plasma	oral, single dose, with: itraconazole multiple doses	–	Cmax	156 ng/mL
C=C1CN(S(=O)(=O)c2ccc(C)cc2)CCc2cc(-c3ccccc3)cc(n2)CCN(S(=O)(=O)c2ccc(C)cc2)C1.Cl	Sortilin	–	HEK-293T	–	baseline: CC50 over IC50	selectivity index	> 12.5
Nc1ncnc2c1ncn2[C@@H]1O[C@H](COP(=O)(O)CP(=O)(O)OP(=O)(O)O)[C@@H](O)[C@H]1O	P2X purinoceptor 1 (P2RX1, Homo sapiens, UniProt P51575, M214A)	calcium influx	–	10 nM	baseline: ionomycin response	calcium influx	0% and 0.457%

A few entries again:
SMILES	tested on	assay	system	conditions	how to read	measurement	value
CC(C)(C)N1Cc2cccc(n2)CN(C(C)(C)C)Cc2cccc(n2)C1	Zn(II) complex	UV-vis titration	–	bound water deprotonation	–	pKa	9.1
O=c1c(O)c(-c2ccc(O)c(O)c2)oc2cc(O)cc(O)c12	ESR2	array formation, agonist	GFP-ERβ PRL-HeLa	1 h	–	EC50	0.314 µM
O=C(O)CC[C@H](NC(=O)N[C@@H](CCCCNC(=O)[C@H](Cc1ccc2ccccc2c1)NC(=O)CCCCCNC(=O)CN1CCN(CC(=O)O)CCN(CC(=O)O)CCN(CC(=O)O)CC1)C(=O)O)C(=O)O [gallium-68 labelled]	–	PET/CT	mouse, 22Rv1 xenograft, muscle	intravenous, 3.7 MBq, 1 h	–	SUVmean	0.25 ± 0.005 SUV
